Measured values pooled from the literature.
Compare with care: the assays were run in different laboratories. Numbers after ± are the reported error. In brackets after ≈: the same amount, converted by molar mass.
Organism: Staphylococcus aureus

CCCCCCCCCC(=O)N[C@@H](Cc1c[nH]c2ccccc12)C(=O)N[C@H](CC(N)=O)C(=O)N[C@@H](CC(=O)O)C(=O)N[C@@H]1C(=O)NCC(=O)N[C@@H](CCCN)C(=O)N[C@@H](CC(=O)O)C(=O)N[C@H](C)C(=O)N[C@@H](CC(=O)O)C(=O)NCC(=O)N[C@H](CO)C(=O)N[C@@H]([C@H](C)CC(=O)O)C(=O)N[C@@H](CC(=O)c2ccccc2N)C(=O)O[C@@H]1C  biofilm reduction (XTT; MRSA ATCC BAA-1556; MIC; relative to: untreated): ~29%
CCCCCCCCCC1N=C(N)N=C(N)N1c1ccc(Cl)cc1.Cl (racemic)  MIC90 (broth microdilution; ATCC 11632; with: 7.4 mg/mL thymidine): 4 µM
CCCCCCCCCCCCCCCC(=O)N[C@@H](CCN)C(=O)N[C@H](C(=O)N[C@@H](CCN)C(=O)N[C@H]1CCNC(=O)[C@H]([C@@H](C)O)NC(=O)[C@H](CCN)NC(=O)[C@H](CCN)NC(=O)[C@H](CC(C)C)NC(=O)[C@@H](CC(C)C)NC(=O)[C@H](CCN)NC1=O)[C@@H](C)O  CFU reduction (MRSA, neutropenic mice, thigh infection, thigh; iv, 5 mg/kg twice, 12 h apart): 4 log10 CFU
CCCCCC1CC2CCCC3CC(C)N=C(N1)N32 (stereo not shown)  IC50 (bacterial growth; ATCC 29213): 4.44 µM
CC[P+](CC)(CC)[Au-][S][C@@H]1O[C@H](COC(C)=O)[C@@H](O[C@H]2O[C@H](COC(C)=O)[C@@H](OC(C)=O)[C@H](OC(C)=O)[C@H]2OC(C)=O)[C@H](OC(C)=O)[C@H]1OC(C)=O  fold enhancement (JE2 USA300; relative to: auranofin): 2 to 4
CC[C@H](C)[C@H](N)C(=O)N[C@@H](CC(C)C)C(=O)N1CCC[C@H]1C(=O)N[C@@H](Cc1c[nH]c2ccccc12)C(=O)N[C@@H](CCCCN)C(=O)N[C@@H](Cc1c[nH]c2ccccc12)C(=O)N1CCC[C@H]1C(=O)N[C@@H](Cc1c[nH]c2ccccc12)C(=O)N[C@@H](Cc1c[nH]c2ccccc12)C(=O)N1CCC[C@H]1C(=O)N[C@@H](Cc1c[nH]c2ccccc12)C(=O)N[C@@H](CCCNC(=N)N)C(=O)N[C@@H](CCCNC(=N)N)C(N)=O  time to complete kill (time-kill; Mueller-Hinton broth; 4 x MIC, 37 °C): 3 h
CC(C)C[C@H](NC(=O)[C@H](CC(N)=O)NC(=O)[C@H](CCCNC(=N)N)NC(=O)[C@@H](CC(C)C)NC(=O)[C@H](Cc1ccc(-c2ccccc2)cc1)NC(=O)[C@H](CC(=O)O)NC(=O)[C@H](CCCCN)NC(=O)[C@@H](CC(C)C)NC(=O)[C@H](CCCNC(=N)N)NC(=O)[C@H](CCC(N)=O)NC(=O)[C@@H](NC(=O)[C@@H](CC(C)C)NC(=O)[C@H](CCCNC(=N)N)NC(=O)[C@H](CCCCN)NC(=O)[C@H](Cc1ccc(-c2ccccc2)cc1)NC(=O)CN)C(C)C)C(=O)N[C@H](C(N)=O)C(C)C  biofilm disruption concentration (XTT; USA300; 24 h, 24 h preformed biofilm): 3.1 µM
Oc1c(Br)cc(Br)c2nc3cc(C(F)(F)F)ccc3nc12  MBC (Calgary Biofilm Device; MRSA 1707; biofilm): 6.25 µM
S=c1n(CN2CCN(Cc3ccccc3)CC2)nc(C23CC4CC(CC(C4)C2)C3)n1-c1ccccc1  inhibition zone diameter (IFO 3060; 200 µg/disc, 24 h, 37 °C): 19 mm
CNC(CC(C)C)C(=O)NC1C(=O)NC(CC(N)=O)C(=O)NC2C(=O)NC3C(=O)NC(C(=O)NC(C(=O)O)c4cc(O)cc(O)c4-c4cc3ccc4O)C(O)c3ccc(c(Cl)c3)Oc3cc2cc(c3OC2OC(CO)C(O)C(O)C2OC2CC(C)(NC(=O)CCCCCC[N+](C)(C)C)C(O)C(C)O2)Oc2ccc(cc2Cl)C1O (stereo not shown)  MIC fold improvement (agar dilution; MRSA4; relative to: vancomycin, higher = more active): 4 fold
CN(C)c1cc(CNCc2ccccc2)c(O)c2c1C[C@H]1C[C@H]3[C@H](N(C)C)C(O)=C(C(N)=O)C(=O)[C@@]3(O)C(O)=C1C2=O  log10 CFU reduction (MRSA 5 tetM, mouse thigh infection model; sc, 20 mg/kg, 24 h; relative to: untreated control): < 2 log10
O=[N+]([O-])c1ccc(CSc2nnc(C34CC5CC(CC(C5)C3)C4)n2-c2ccccc2)cc1  inhibition zone diameter (IFO 3060; 200 µg/disc, 24 h, 37 °C): 21 mm
CNC(CC(C)C)C(=O)NC1C(=O)NC(CC(N)=O)C(=O)NC2C(=O)NC3C(=O)NC(C(=O)NC(C(=O)O)c4cc(O)cc(O)c4-c4cc3ccc4O)C(O)c3ccc(c(Cl)c3)Oc3cc2cc(c3OC2OC(CO)C(O)C(O)C2OC2CC(C)(NC(=O)CCCC[N+](C)(C)C)C(O)C(C)O2)Oc2ccc(cc2Cl)C1O (stereo not shown)  MIC fold improvement (agar dilution; MRSA1; relative to: vancomycin, higher = more active): 8 fold
COc1cc(NC(=O)CSc2nc3ccccc3c(=O)n2-c2ccc(S(N)(=O)=O)cc2)cc(OC)c1  inhibition zone (microbial growth, well diffusion; MRSA; 500 µg/mL, 24 h): 24 mm
CC1=C[C@@H](C)[C@H]2[C@@H]3C(=O)C(Cl)(Cl)C(=O)[C@H](C)C(=O)O[C@@H](C)/C=C/C=C\[C@@H](C)[C@@H]3C=C[C@@H]2C1  MIC50 (MSSA and MRSA clinical isolates): 0.05 µg/mL (≈ 0.104 µM)
O=C(Oc1cccccc1=O)c1ccc(Cl)cc1  reduction in viable count (time-kill; ATCC 29213; 1 x MIC80, 24 h): 1 log10 CFU
N=C(N)NCCC[C@H](NC(=O)[C@H](Cc1c[nH]c2ccccc12)NC(=O)[C@H](CCC(N)=O)NC(=O)[C@H](Cc1c[nH]c2ccccc12)NC(=O)[C@H](CCCNC(=N)N)NC(=O)[C@@H](N)CCCNC(=N)N)C(=O)NCCCC[C@H](NC(=O)[C@H](CCCNC(=N)N)NC(=O)[C@H](Cc1c[nH]c2ccccc12)NC(=O)[C@H](CCC(N)=O)NC(=O)[C@H](Cc1c[nH]c2ccccc12)NC(=O)[C@H](CCCNC(=N)N)NC(=O)[C@@H](N)CCCNC(=N)N)C(=O)NCCCCCC(=O)N[C@@H](CSSC[C@H](NC(=O)CCCCCNC(=O)[C@H](CCCCNC(=O)[C@H](CCCNC(=N)N)NC(=O)[C@H](Cc1c[nH]c2ccccc12)NC(=O)[C@H](CCC(N)=O)NC(=O)[C@H](Cc1c[nH]c2ccccc12)NC(=O)[C@H](CCCNC(=N)N)NC(=O)[C@@H](N)CCCNC(=N)N)NC(=O)[C@H](CCCNC(=N)N)NC(=O)[C@H](Cc1c[nH]c2ccccc12)NC(=O)[C@H](CCC(N)=O)NC(=O)[C@H](Cc1c[nH]c2ccccc12)NC(=O)[C@H](CCCNC(=N)N)NC(=O)[C@@H](N)CCCNC(=N)N)C(N)=O)C(N)=O  time to bactericidal effect (time-kill; ATCC 25923; 44 µM): 48 h
CN1/C(=C/C=C/c2cc(-c3ccccc3)cc(-c3ccccc3)[o+]2)C(C)(C)c2ccccc21  IC50 (cell wall synthesis; NCTC 8325; with: reserpine 20 µg/mL): 0.19 µg/mL
CN[C@H](CC(C)C)C(=O)N[C@H]1C(=O)N[C@@H](CC(N)=O)C(=O)N[C@H]2C(=O)N[C@H]3C(=O)N[C@H](C(=O)N[C@H](C(=O)O)c4cc(O)cc(O)c4-c4cc3ccc4O)[C@H](O)c3ccc(c(Cl)c3)Oc3cc2cc(c3O[C@@H]2O[C@H](CO)[C@@H](O)[C@H](O)[C@H]2O[C@H]2C[C@](C)(NCc3ccc(C(=O)OCCCCCCN(Cc4ccccn4)Cc4ccccn4)cc3)[C@H](O)[C@H](C)O2)Oc2ccc(cc2Cl)[C@H]1O  viable count reduction (MRSA exponential phase; 2 and 4 × MIC, 12 h): 5.4 log CFU/mL
CN(C)c1cc(CN2CCCCC2)c(O)c2c1C[C@H]1C[C@H]3[C@H](N(C)C)C(O)=C(C(N)=O)C(=O)[C@@]3(O)C(O)=C1C2=O  log10 CFU reduction (MRSA 5 tetM, mouse thigh infection model; sc, 20 mg/kg, 24 h; relative to: untreated control): 2.49 to 3.11 log10
O=C1c2ccccc2NC(c2ccc(O)c(O)c2)N1/N=C/c1ccc(O)c(O)c1 (stereo not shown)  inhibition (respiratory activity, MTT; ATCC 29213; 0.5 × MIC): 90.1%
Cc1cc([N+](=O)[O-])ccc1NC(=O)CSc1nc2ccccc2c(=O)n1-c1ccc(S(N)(=O)=O)cc1  MBC (microbial killing; ATCC29 ATCC29213; 24 h): 1.17 µg/mL
Cc1c2c(cc3oc(=O)cc(-c4ccc(Cl)cc4)c13)C(=O)c1cccc(O)c1C2=O  inhibition zone (microbial growth, disc diffusion; MTCC96; 100 µg/disc): 8 mm
O=C(CCc1cc(O)c(O)c(O)c1)NCCCCCCCCCC[P+](c1ccccc1)(c1ccccc1)c1ccccc1  K+ release (XU212; 2 x MIC, 1 h): 2.24 ± 0.34 µg/mL
C[C@H]1COc2c(N3CCN(C)CC3)c(F)cc3c(=O)c(C(=O)N[C@@H](CCCNC(=N)N)C(=O)N[C@@H](Cc4ccc(-c5ccccc5)cc4)C(=O)N[C@@H](CCCNC(=N)N)C(=O)N[C@@H](Cc4ccc(-c5ccccc5)cc4)C(=O)N[C@@H](CCCNC(=N)N)C(N)=O)cn1c23  fold MIC improvement (broth microdilution; ATCC BAA-44; relative to: MIC of unconjugated components): 2.5 to 3.25 fold
O=[N+]([O-])c1ccc2c(c1)C=[N+]1N3C(=[O+][Cu-2]1([Cl])[O]2)c1ccccc1NC3c1cc([N+](=O)[O-])ccc1O (stereo not shown)  inhibition (respiratory activity, MTT; ATCC 29213; 0.5 × MIC): 90.2%
N=C(N)NCCC[C@@H]1NC(=O)[C@H](CCCNC(=N)N)NC(=O)[C@H](CCCNC(=N)N)NC(=O)[C@H](Cc2ccc3ccccc3c2)NC(=O)[C@H](Cc2c[nH]c3ccccc23)NC(=O)[C@H](Cc2ccc3ccccc3c2)NC(=O)[C@H](CCCNC(=N)N)NC1=O  biofilm reduction (XTT; MRSA ATCC BAA-1556; 2 x MIC; relative to: untreated): 60 to 65%
COc1ccc2c3c(oc2c1CC=C(C)C)-c1cc(CC=C(C)C)c(O)cc1OC3  antibacterial activity (ATCC 25923; concentration not given): inactive
CCCCCCCCCCCCCC(=O)N[C@@H](CCCCN)C(=O)N[C@@H](CCCCN)C(N)=O  inhibition (biofilm formation, XTT; USA300; 3.1 to 12.5 µM): inhibited
Cc1cccc([N+](=O)[O-])c1NC(=O)CSc1nc2ccccc2c(=O)n1-c1ccc(S(N)(=O)=O)cc1  inhibition zone (microbial growth, well diffusion; MRSA; 500 µg/mL, 24 h): 25 mm
CC(C)C[C@H](NC(=O)[C@H](CC(N)=O)NC(=O)[C@H](CCCNC(=N)N)NC(=O)[C@@H](CC(C)C)NC(=O)[C@H](Cc1ccc(-c2ccccc2)cc1)NC(=O)[C@H](CC(=O)O)NC(=O)[C@H](CCCCN)NC(=O)[C@@H](CC(C)C)NC(=O)[C@H](CCCNC(=N)N)NC(=O)[C@H](CCC(N)=O)NC(=O)[C@@H](NC(=O)[C@@H](CC(C)C)NC(=O)[C@H](CCCNC(=N)N)NC(=O)[C@H](CCCCN)NC(=O)[C@H](Cc1ccc(-c2ccccc2)cc1)NC(=O)CN)C(C)C)C(=O)N[C@H](C(N)=O)C(C)C  lag time before regrowth (bacterial growth; USA300; 1 × MIC, 24 h): ~15 h

Repeated from above:
O=C1c2ccccc2NC(c2ccc(O)c(O)c2)N1/N=C/c1ccc(O)c(O)c1 (stereo not shown)  inhibition (respiratory activity, MTT; ATCC 29213; 0.5 × MIC): 90.1%
Cc1cc([N+](=O)[O-])ccc1NC(=O)CSc1nc2ccccc2c(=O)n1-c1ccc(S(N)(=O)=O)cc1  MBC (microbial killing; ATCC29 ATCC29213; 24 h): 1.17 µg/mL
Cc1c2c(cc3oc(=O)cc(-c4ccc(Cl)cc4)c13)C(=O)c1cccc(O)c1C2=O  inhibition zone (microbial growth, disc diffusion; MTCC96; 100 µg/disc): 8 mm
